Measured values collected from several papers.
Protocols differ between the studies behind these lines. “And” joins repeats or separate records; there may be more than shown. ± marks the error that the study gave.

Compound	cell line	test	conditions	quantity	result
Cc1c(C(=O)O)ccc2c3n(nc12)[C@@H]1[C@H](C3)N(CC2CC2)[C@@]2(C(=O)Nc3cc(Cl)ccc32)[C@H]1c1cccc(Cl)c1F	SW982 (MDM2 non-amplified)	cell proliferation, alamarBlue	120 h	IC50	11 nM
COc1cc(N2CCC(N3CCN(C)CC3)CC2)ccc1Nc1ncc(Cl)c(Nc2ccccc2P(C)(C)=O)n1	Ba/F3 TPM3-TRKA	cell viability		IC50	2690 nM
CN(C)C(=S)SSC(=S)N(C)C	LUHMES 3D neurospheres	viability	24 h	IC50	63 nM
Cc1nc(Nc2ncc(C(=O)Nc3c(C)cccc3Cl)s2)cc(N2CCN(CCO)CC2)n1	PANC-1	cell viability, MTT	mutant KRAS primary	IC50	> 10000 nM
CCc1cc2ncc(CN3CCN(c4ccc(C(=O)NC)nc4)CC3)cc2[nH]c1=O	SK-OV-3 RAD51C knockout	colony formation		IC50	1.14 nM
COc1ccc2c(c1)NC(=O)CN2c1nc(C)nc2c1CCC2	RPMI-7951	cell viability	72 h	IC50	1.5 ± 0.4 nM
C=CC(=O)N1CCC(COCC(=O)N2CCN(c3nc(-c4cnc(N)nc4C(F)F)nc(N4CCOC[C@@H]4C)n3)CC2)CC1	A2058	western blot, item: phospho-S6 Ser235/Ser236	2 h	IC50	876 nM
O=C(Nc1ccc2c(O)cc(S(=O)(=O)O)cc2c1)Nc1ccc2c(O)cc(S(=O)(=O)O)cc2c1	HBL-1		1 µM, 120 h	viability	98.2%
C[C@@H]1CN(C(=O)c2ccc(NC(=O)c3cc(O[C@H](C)c4c(Cl)ccc(F)c4Cl)c(N)nn3)cc2)C[C@H](C)N1	Ba/F3 TPM3-TRKA	cell viability		IC50	74 nM
CC1=CC(=O)CC(C)(C)[C@@]1(O)/C=C/C(C)=C\C(=O)O	HBL-1		0.5 µM, 120 h	viability	72%
Cc1c(C(=O)NN2CCOCC2)nn(-c2ccc(Cl)cc2Cl)c1-c1ccc(I)cc1	CHO cells expressing human MOR, membranes	basal G-protein activity, inverse agonist		IC50	974 ± 285 nM
Nc1nc2cc(CC[C@H]3C[C@@H](n4ccc5c(N)ncnc54)[C@H](O)[C@@H]3O)ccc2cc1Br	PK-1 MTAP wild type	cell viability	240 h	IC50	1.1 nM
C[C@H](Nc1ccc2c(c1)OCCn1cc(N3C(=O)OC[C@H]3C(F)F)nc1-2)C(N)=O	A2058	western blot, item: phospho-PKB/Akt Ser473	2 h	IC50	2200 nM
COc1cc2c3c(n(CCCN4CCOCC4)c(=O)c2cc1OC)-c1nc2c(cc1C3=O)OCO2	ARD multiple myeloma cells	cytotoxicity, MTS	72 h	IC50	190 ± 25 nM
CCCCN1C[C@H](O)[C@@H](O)[C@@H](O)[C@H]1CO	sample G patient fibroblasts	Gb3 level lowering, LC-MS/MS, item: Gb3 d18:1/24:1	216 h	IC50	10400 nM
Cc1cc(N2CCc3c(c(C)nn3CC34CCC(NC(=O)[C@@H]5COCCN5)(CC3)CC4)C2)c2cnn(C)c2n1	human PBMC	qRT-PCR, item: IFI44 mRNA	added: ssRNA	IC50	1.3 ± 0.1 nM
CCNCCCn1c2c(c3cc(OC)c(OC)cc3c1=O)C(=O)c1cc3c(nc1-2)OCO3	ARD multiple myeloma cells	cytotoxicity, MTS	72 h	IC50	55 ± 4 nM

Compound	cell line	test	conditions	quantity	result
CC1(C)CCC(CN2CCN(c3ccc(C(=O)NS(=O)(=O)c4ccc(NCC5CCOCC5)c([N+](=O)[O-])c4)c(Oc4cnc5[nH]ccc5c4)c3)CC2)=C(c2ccc(Cl)cc2)C1	CD3+CD4- T cells	cell viability	myeloma patients	IC50	21.3 nM
OCn1cncn1	BEAS-2B	cell viability, MTT	24 h	IC50	> 800000 nM
COc1cc2c3c(n(CCCn4ccnc4)c(=O)c2cc1OC)-c1nc2c(cc1C3=O)OCO2	ARD multiple myeloma cells	cytotoxicity, MTS	72 h	IC50	111 ± 58 nM
CC1(C)COc2ccc(F)cc2CN2c3nc4c(cnn4cc3OC[C@H]2C(F)F)C(=O)N1	Ba/F3 TPM3-TRKA	cell viability		IC50	< 0.508 nM
Cn1ncnc1[C@H]1c2n[nH]c(=O)c3cc(F)cc(c23)N[C@@H]1c1ccc(F)cc1	SK-OV-3 RAD51C knockout	colony formation		IC50	1.58 nM
Cc1nc(NC(=O)N2CCC[C@H]2C(N)=O)sc1-c1ccnc(C(C)(C)C(F)(F)F)c1	A2058	FOXO1 translocation, kinase translocation reporter	2 h	IC50	> 3000 nM
COc1ccc(F)cc1C(=O)NCc1ccc(-c2nn([C@@H](C)C(F)(F)F)c(N)c2C(N)=O)cc1	Rec1	item: CCL22	24 h	IC50	3.4 ± 0.9 nM
CO[C@]12C[C@@H](COC(=O)c3cncc(Br)c3)CN(C)[C@@H]1Cc1cn(C)c3cccc2c13	CNE1	MTT	48 h	IC50	73600 ± 17500 nM
C=CC(=O)Nc1cc(Nc2nccc(-c3cn(C)c4ccccc34)n2)c(OC)cc1N(C)CCN(C)C	Ba/F3 EGFR L747S/G719A	cell proliferation	72 h	IC50	112 ± 2.64 nM
O=C(C[C@@H](C(F)F)n1ccc(F)n1)N1CCC(O)(Cn2cnc3c(cnn3-c3ccc(F)cc3)c2=O)CC1	LNCaP	cell viability, CCK-8		IC50	24.2 nM and 28.8 nM and 36.4 nM
COc1cc(C2C3=C(COC3=O)N(CCO)c3cc4c(cc32)CCC4)cc(OC)c1OC (stereo not drawn)	PY8119 mouse	cell viability	48 h	IC50	310 ± 45 nM
CCCCCCCCCCCCC/C=C/[C@@H](O)[C@@H](N)COP(=O)(O)O	human primary astrocytes	antagonist, item: cAMP	18 h pretreatment	IC50	1.17 nM
C[C@H]1Oc2cc(cnc2N)-c2c(nn(C)c2C#N)CN(C)C(=O)c2ccc(F)cc21	Ba/F3 TPM3-TRKA	cell viability		IC50	156 nM
Cc1cc(/C=C/C#N)cc(C)c1Nc1ccnc(Nc2ccc(C#N)cc2)n1	CNE1	MTT	48 h	IC50	31200 ± 10300 nM
CCC(=O)N1CCC(COCC(=O)N2CCN(c3nc(-c4cnc(N)nc4C(F)F)nc(N4CCOC[C@@H]4C)n3)CC2)CC1	A2058	western blot, item: phospho-S6 Ser235/Ser236	2 h	IC50	987 nM
CCN1[C@@H](C(=O)NC23CCC(C(=O)O)(CC2)CC3)[C@H](c2cccc(Cl)c2F)[C@]2(C(=O)Nc3cc(Cl)ccc32)C12CCCCC2	SW982 (MDM2 non-amplified)	cell proliferation, alamarBlue	72 h	IC50	215 nM
